Published values collected from several papers.
Values joined by “and” are separate records of one study, mostly repeats; a detail may differ.
Target: Serine/threonine-protein kinase PAK 5 (PAK5, Homo sapiens, UniProt Q9P286)

For `CNC(=O)C1CCN(c2cc(C)c(F)cc2NC(=O)c2ccc(-c3cc(O)ccc3C)c(C)c2)CC1`, the remaining binding was 100% (binding, competition with immobilised ligand; 1 µM).
`COc1ccc(C(=O)/C=C/c2ccccc2-c2c[nH]c3ccc(C#N)cc23)c(O)c1` gave an inhibition of 10% (enzyme activity, inhibitor; 20 µM).
For `Cc1cccc(O[C@H]2CCC[C@@H](C(C)CNCc3ccncc3)C2)c1` (relative stereo), the inhibition was -9% (enzyme activity, inhibitor; 1 µM).
`C[C@H]1CN(C(=O)c2cn(-c3ccnc(N)n3)c3cc(C#CC4(O)CCCCC4)ccc23)CCN1` gave an inhibition of 97% (enzyme activity, inhibitor, FRET; 1 µM).
With `CC(C)=CC1OC(C)(C)C2C=C3C(=O)C(Cl)=CC(O)C3C3C(O)C4OC4C(=O)C132` (stereo not drawn) the remaining binding was 79% (cell-free assay, competition with immobilised ligand; 10 µM).
`O=C(Cc1ccc(OCc2ccccc2)cc1)NC1(C(=O)O)CCN(C(=O)c2ccc(-c3cccc(Cl)c3)cc2)CC1`: “activity vs control” 112% (enzyme activity, inhibitor; 10 µM).
The remaining binding of `CNC1C[S+]2CC[S+]3CC[S+](C1)[Ru-4]321([N]=C=S)[n]2c3ccc(OC)cc3c3c4c(c5cc(F)c[n+]1c5c32)C(=O)NC4=O` (stereo not drawn) is reported as 80% (KinomeScan; 0.1 µM; baseline: untreated).
For `Cc1cccc(-c2ccc3nc(NC(=O)C4CCOCC4)nn3c2)c1`, the remaining activity was 74% (enzyme activity, Dundee kinase panel; 10 µM).
The inhibition of `NC(=O)C[C@H]1CCc2sc3ncnc(O[C@H]4CC[C@H](N5CCOCC5)CC4)c3c21` is reported as 3% (enzyme activity, inhibitor; 10 µM).
`C=CC(=O)N1Cc2nc(-c3cc(-c4cc(Cl)cnc4Cl)c(F)cc3F)n(-c3ccncn3)c2C1` has an inhibition of -0.1% (cell-free assay, inhibitor; 1 µM).
For `C=CC(=O)Nc1cccc(-c2cnc3[nH]cc(C(=O)NC(C)(C)C)c3n2)c1`, the inhibition was 11% and 14% (kinase activity; 0.1 µM).
`Cc1cccc(-c2ccc3nc(NC(=O)C4CCCCC4)nn3c2)c1` gave a remaining activity of 82% (enzyme activity, Dundee kinase panel; 10 µM).
